Experimental data pooled from the literature.
Numbered parts are unrelated; each lists some results of a single study. Changes are numbered by the printed parent chain.
Chain of UniProt O15075 (whole entry, looked up): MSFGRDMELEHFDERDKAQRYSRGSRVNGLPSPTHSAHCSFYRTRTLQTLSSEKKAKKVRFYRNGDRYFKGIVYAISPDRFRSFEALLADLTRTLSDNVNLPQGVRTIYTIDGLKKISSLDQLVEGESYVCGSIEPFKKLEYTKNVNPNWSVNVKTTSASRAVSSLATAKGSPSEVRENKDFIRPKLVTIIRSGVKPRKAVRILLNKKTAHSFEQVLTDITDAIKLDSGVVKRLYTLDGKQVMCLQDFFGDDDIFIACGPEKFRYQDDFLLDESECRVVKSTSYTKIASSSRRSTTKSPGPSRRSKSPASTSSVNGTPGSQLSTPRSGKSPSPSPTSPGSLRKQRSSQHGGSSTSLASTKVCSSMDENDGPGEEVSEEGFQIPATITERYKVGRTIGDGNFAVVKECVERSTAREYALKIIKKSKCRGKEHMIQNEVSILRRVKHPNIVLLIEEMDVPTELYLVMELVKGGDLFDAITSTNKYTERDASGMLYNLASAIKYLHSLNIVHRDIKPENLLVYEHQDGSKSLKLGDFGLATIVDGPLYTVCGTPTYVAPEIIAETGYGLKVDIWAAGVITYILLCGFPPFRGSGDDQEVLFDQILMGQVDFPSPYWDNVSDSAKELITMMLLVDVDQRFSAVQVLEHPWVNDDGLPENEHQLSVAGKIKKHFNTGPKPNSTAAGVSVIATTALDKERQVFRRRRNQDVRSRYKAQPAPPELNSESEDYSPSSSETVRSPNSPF

Series 1
Target: CEP164, C-terminal peptide (human)
Method: DHFR complementation, deep sequencing
Matrix: yeast
Setting: single substitutions, model-inferred values
Baseline: wild type
Reading: higher = weaker binding
Parent: PDZK1, PDZ domain 2 (human); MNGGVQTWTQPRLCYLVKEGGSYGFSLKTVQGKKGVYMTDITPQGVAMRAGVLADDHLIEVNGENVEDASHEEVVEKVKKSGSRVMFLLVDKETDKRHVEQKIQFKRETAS; partner HNRVKVYRF
Under “binding free energy change”, `E76L` is recorded as 0.161 kcal/mol.
`T94I` — result for “binding free energy change”: 0.175 kcal/mol.
`G35E` — result for “binding free energy change”: 0.336 kcal/mol.
`W8M` — result for “binding free energy change”: -0.0997 kcal/mol.
`E64T`: “binding free energy change” 0.0391 kcal/mol.
`K34I` — result for “binding free energy change”: 0.188 kcal/mol.
For `Y37H`, “binding free energy change” read 0.648 kcal/mol.
Under “binding free energy change”, `E73L` is recorded as 0.0841 kcal/mol.

Series 2
Target: Sal-like protein 4, full length isoform A (SALL4, Homo sapiens, UniProt Q9UJQ4, residues 1-1053)
Chain of UniProt Q9UJQ4 (whole entry, looked up): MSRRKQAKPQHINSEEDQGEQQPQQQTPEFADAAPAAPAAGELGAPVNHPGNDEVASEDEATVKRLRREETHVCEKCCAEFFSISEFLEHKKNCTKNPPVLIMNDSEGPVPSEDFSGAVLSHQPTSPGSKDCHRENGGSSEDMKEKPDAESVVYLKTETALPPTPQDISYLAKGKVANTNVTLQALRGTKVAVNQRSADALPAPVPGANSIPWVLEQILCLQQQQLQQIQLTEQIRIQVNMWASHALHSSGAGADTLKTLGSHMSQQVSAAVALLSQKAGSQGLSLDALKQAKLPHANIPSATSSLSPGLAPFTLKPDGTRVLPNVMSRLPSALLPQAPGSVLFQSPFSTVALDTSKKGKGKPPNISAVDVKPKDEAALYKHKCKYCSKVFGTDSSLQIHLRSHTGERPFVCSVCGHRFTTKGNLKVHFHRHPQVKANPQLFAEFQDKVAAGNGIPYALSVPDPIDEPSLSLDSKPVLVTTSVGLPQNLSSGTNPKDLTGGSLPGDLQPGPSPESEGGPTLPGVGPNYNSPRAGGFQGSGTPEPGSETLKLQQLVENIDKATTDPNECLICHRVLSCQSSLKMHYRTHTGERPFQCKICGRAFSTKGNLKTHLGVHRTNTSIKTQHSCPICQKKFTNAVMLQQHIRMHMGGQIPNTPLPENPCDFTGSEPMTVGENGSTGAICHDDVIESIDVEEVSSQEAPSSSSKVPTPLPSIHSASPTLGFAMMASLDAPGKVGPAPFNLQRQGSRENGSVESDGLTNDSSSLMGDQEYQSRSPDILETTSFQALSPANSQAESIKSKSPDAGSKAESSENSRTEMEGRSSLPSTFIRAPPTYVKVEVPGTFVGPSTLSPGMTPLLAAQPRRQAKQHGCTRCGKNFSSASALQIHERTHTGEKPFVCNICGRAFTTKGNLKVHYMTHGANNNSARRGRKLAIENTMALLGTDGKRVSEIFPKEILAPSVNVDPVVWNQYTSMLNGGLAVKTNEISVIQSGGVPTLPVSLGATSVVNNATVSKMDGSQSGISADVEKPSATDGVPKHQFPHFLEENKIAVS
Method: universal PBM
Form: double-stranded DNA, one strand shown
Matrix: in vitro
Tested at: 600 nM
Setting: 8-mer, flanks averaged, mean of replicates
Reading: higher = stronger binding
With `ATCATGCG` the E-score was -0.00113.
With `GAAGAAAA` the E-score was 0.116.
`AGCAAGGA` gave an E-score of -0.0396.
`TAGGCACA` has an E-score of -0.0424.
`CTTTCCGA` has an E-score of -0.00556.
The E-score of `TAGTAACA` is reported as 0.17.
For `ATTTCCTA`, the E-score was 0.272.
For `ACGTGGGG`, the E-score was -0.244.

Series 3
Target: ABI1, truncated, D143A, DHFR fusion (Arabidopsis thaliana)
Method: DHFR PCA, deep sequencing
Matrix: yeast
Setting: methotrexate growth selection, single substitutions
With: (+)-ABA 0.39 µM
Baseline: wild-type fitted maximum
Reading: higher = stronger binding
Parent: PYL1, truncated, DHFR fusion (Arabidopsis thaliana); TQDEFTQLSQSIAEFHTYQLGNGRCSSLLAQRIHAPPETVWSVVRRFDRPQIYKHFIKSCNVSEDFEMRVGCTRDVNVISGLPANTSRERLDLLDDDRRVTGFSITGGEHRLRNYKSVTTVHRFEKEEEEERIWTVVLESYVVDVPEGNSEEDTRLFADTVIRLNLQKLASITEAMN
`D144P`: “relative binding score” -12.6%.
For `L93Y`, “relative binding score” read 27.9%.
For `Q10V`, “relative binding score” read 17%.
`G21L`: “relative binding score” 15.6%.
Under “relative binding score”, `R111F` is recorded as 6.91%.
For `R163H`, “relative binding score” read 3.82%.
Under “relative binding score”, `H34L` is recorded as 43.3%.
`R74D`: “relative binding score” -9.86%.

Single results of other studies
O=C(NS(=O)(=O)c1ccc(NCC2CCOCC2)c([N+](=O)[O-])c1)c1ccc(N2CCN(Cc3ccc(C(F)(F)F)cc3-c3ccc(Cl)cc3)CC2)cc1Oc1cnc2[nH]ccc2c1 has a remaining binding of 100% (Serine/threonine-protein kinase DCLK1 (DCLK1, Homo sapiens, UniProt O15075); cell-free assay, competition with immobilised ligand; 1 µM).

Repeated from above (series 3):
`G21L`: “relative binding score” 15.6%.
`D144P`: “relative binding score” -12.6%.
